Measurements collected from several papers.
Each numbered part is a random draw from the data of one study; scales do not carry over between parts. Substitutions count along the parent as printed.
UniProt Q9C0B0, sequence (30-357, looked up): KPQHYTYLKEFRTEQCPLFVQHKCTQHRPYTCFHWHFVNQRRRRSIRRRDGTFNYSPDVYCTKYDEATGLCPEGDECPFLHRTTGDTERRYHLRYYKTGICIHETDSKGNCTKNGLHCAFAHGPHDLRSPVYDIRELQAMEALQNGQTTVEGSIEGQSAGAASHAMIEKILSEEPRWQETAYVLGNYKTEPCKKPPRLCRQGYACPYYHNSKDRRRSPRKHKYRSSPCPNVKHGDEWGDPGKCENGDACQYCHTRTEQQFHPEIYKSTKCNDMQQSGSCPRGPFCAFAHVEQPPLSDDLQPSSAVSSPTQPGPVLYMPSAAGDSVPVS

Set 1
Target: Prothrombin, mature alpha-thrombin (F2, Homo sapiens, UniProt P00734)
Method: aptamer microarray, sandwich
Form: DNA with 2'F-ANA
Matrix: in vitro
Tested at: 200 nM
Notes: whole 15-mer aptamer, many near background
Added: Cy3 exosite-II aptamer, 400 nM
Reading: higher = stronger binding
Strand: GGTTGGTGTGGTTGG
`2'F-ANA at 1 3 4 6 10 14` — result for “mean fluorescence intensity”: 58.7 a.u.
For `2'F-ANA at 7 9 10 11 13 15`, “mean fluorescence intensity” read 155 a.u.
`2'F-ANA at 3 4 5 10 12`: “mean fluorescence intensity” 80.7 a.u.
For `2'F-ANA at 1 3 4 5 6 7 8 10`, “mean fluorescence intensity” read 45.4 a.u.
`2'F-ANA at 3 4 7 10 11 12 14 15`: “mean fluorescence intensity” 181 a.u.
Under “mean fluorescence intensity”, `2'F-ANA at 4 5 6 7 9 14` is recorded as 43.1 a.u.
`2'F-ANA at 2 7 10 12 14 15` — result for “mean fluorescence intensity”: 89.3 a.u.
`2'F-ANA at 1 2 3 4 5 6 9 13 14`: “mean fluorescence intensity” 112 a.u.
For `2'F-ANA at 3 4 6 13 14`, “mean fluorescence intensity” read 244 a.u.
`2'F-ANA at 2 3 5 7 9 11 15`: “mean fluorescence intensity” 82.5 a.u.
`2'F-ANA at 2 5 7 10 11 14 15`: “mean fluorescence intensity” 45.6 a.u.
For `2'F-ANA at 1 3 5 6 8 12 14 15`, “mean fluorescence intensity” read 47.6 a.u.
For `2'F-ANA at 2 4 6 7 8 9 11`, “mean fluorescence intensity” read 270 a.u.
`2'F-ANA at 1 3 4 5 6 8 9 10 15`: “mean fluorescence intensity” 47.7 a.u.
Under “mean fluorescence intensity”, `2'F-ANA at 1 2 3 4 5 6 7 9 13` is recorded as 52.1 a.u.
`2'F-ANA at 2 8 11`: “mean fluorescence intensity” 500 a.u.
Under “mean fluorescence intensity”, `2'F-ANA at 2 3 5 7 12 13 14 15` is recorded as 55.7 a.u.
`2'F-ANA at 1 2 3 5 6 9 12 14 15` — result for “mean fluorescence intensity”: 58.3 a.u.
`2'F-ANA at 1 2 3 5 10 12 13`: “mean fluorescence intensity” 50.4 a.u.
`2'F-ANA at 2 3 6 8 9 10 13 14` — result for “mean fluorescence intensity”: 245 a.u.
`2'F-ANA at 1 3 4 5 6 8 11 12 14 15` — result for “mean fluorescence intensity”: 48.3 a.u.
`2'F-ANA at 1 3 5 6 9 10 14 15` — result for “mean fluorescence intensity”: 63.9 a.u.

Set 2
Target: Interferon regulatory factor 3, full length, phosphomimetic (IRF3, Homo sapiens, UniProt Q14653, residues 1-427, S386D/S396D/S398D/S402D/T404D/S405D)
UniProt Q14653, sequence (whole entry, unmodified, looked up): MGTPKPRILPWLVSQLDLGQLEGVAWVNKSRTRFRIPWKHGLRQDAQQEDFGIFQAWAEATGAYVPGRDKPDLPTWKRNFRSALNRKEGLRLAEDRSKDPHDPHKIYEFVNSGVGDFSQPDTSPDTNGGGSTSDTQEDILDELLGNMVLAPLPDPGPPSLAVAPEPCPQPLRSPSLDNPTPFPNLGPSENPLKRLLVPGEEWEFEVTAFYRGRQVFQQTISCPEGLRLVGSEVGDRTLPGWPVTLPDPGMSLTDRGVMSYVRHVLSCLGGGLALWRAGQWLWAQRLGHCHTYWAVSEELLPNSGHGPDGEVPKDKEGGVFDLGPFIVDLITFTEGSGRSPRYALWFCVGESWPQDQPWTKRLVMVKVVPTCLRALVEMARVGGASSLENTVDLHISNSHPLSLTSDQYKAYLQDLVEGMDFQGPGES
Method: protein-binding microarray
Form: double-stranded DNA, one strand shown
Matrix: in vitro
Tested at: 2540 nM top
Notes: 60-bp whole probe
Added: salmon DNA 0.4 mg/ml
Baseline: random background probes
Reading: higher = stronger binding
Constant ends, left off below: GCCTAGCAC … GTCTTGATTCGCTTGACGCTGCTG
Under “fitted relative affinity”, `GACGATATCGGGGATCGAGACGTGCTA` is recorded as -0.0621 z-score.
`TCATCTATCAAAAATACAACTGTGCTA`: “fitted relative affinity” 0.627 z-score.
Under “fitted relative affinity”, `TTAGGTTTCGGGTATTGGTTAGTGCTA` is recorded as 3.75 z-score.
Under “fitted relative affinity”, `CTTTAACTCATTTTCATTTTGTGCTAG` is recorded as 2.03 z-score.
`TCAGATTTTTTTTCCTAACTGTGCTAG` — result for “fitted relative affinity”: 1.72 z-score.
Under “fitted relative affinity”, `CTGCCCTGGTTCCCCTGCCTGTGCTAG` is recorded as -0.452 z-score.
`GACGGACTGGACACTGAGGACGTGCTA`: “fitted relative affinity” -0.452 z-score.
For `GACGGACCGGGTCTCGGGACGTGCTAG`, “fitted relative affinity” read -0.33 z-score.
`TCATTTTTTAATTGAGAACTGTGCTAG` — result for “fitted relative affinity”: 1.39 z-score.
Under “fitted relative affinity”, `GACGGTATCGACACTGGGTACGTGCTA` is recorded as 0.673 z-score.
For `TTAGGGATCCTTATCCTTTAGTGCTAG`, “fitted relative affinity” read 3.57 z-score.
`GACGATATCAGGTTTCGAGACGTGCTA` — result for “fitted relative affinity”: 1.97 z-score.
For `GACGGTAACCTTCTCCTGACGTGCTAG`, “fitted relative affinity” read 1.87 z-score.
For `TCATTTCTCCCAAGTCTTACTGTGCTA`, “fitted relative affinity” read 2.48 z-score.
For `CTAGATCTCAGTATCGATTAGTGCTAG`, “fitted relative affinity” read 0.986 z-score.
For `GACGGTATCCTACTGCTGAAGTGCTAG`, “fitted relative affinity” read 2.75 z-score.
For `TTCGGTTTCGGTTTCGGTTAGTGCTAG`, “fitted relative affinity” read 12.4 z-score.
Under “fitted relative affinity”, `TGAAGAATGCCTTTAATAAGGTGCTAG` is recorded as -0.271 z-score.
Under “fitted relative affinity”, `TAACTTTCCAATTGTCCTTTCGTGCTA` is recorded as 5.3 z-score.
`TTAGATATCGGGATTGGATTAGTGCTA`: “fitted relative affinity” 0.15 z-score.
`GACGGTTTCGACTTTCGGCACGTGCTA` — result for “fitted relative affinity”: 3.72 z-score.
For `TCAGTCACCCATCTCAAACTGTGCTAG`, “fitted relative affinity” read 1.71 z-score.

Set 3
Target: Ras GTPase-activating protein-binding protein 1, full length (G3BP1, Homo sapiens, UniProt Q13283)
UniProt Q13283, sequence (whole entry, looked up): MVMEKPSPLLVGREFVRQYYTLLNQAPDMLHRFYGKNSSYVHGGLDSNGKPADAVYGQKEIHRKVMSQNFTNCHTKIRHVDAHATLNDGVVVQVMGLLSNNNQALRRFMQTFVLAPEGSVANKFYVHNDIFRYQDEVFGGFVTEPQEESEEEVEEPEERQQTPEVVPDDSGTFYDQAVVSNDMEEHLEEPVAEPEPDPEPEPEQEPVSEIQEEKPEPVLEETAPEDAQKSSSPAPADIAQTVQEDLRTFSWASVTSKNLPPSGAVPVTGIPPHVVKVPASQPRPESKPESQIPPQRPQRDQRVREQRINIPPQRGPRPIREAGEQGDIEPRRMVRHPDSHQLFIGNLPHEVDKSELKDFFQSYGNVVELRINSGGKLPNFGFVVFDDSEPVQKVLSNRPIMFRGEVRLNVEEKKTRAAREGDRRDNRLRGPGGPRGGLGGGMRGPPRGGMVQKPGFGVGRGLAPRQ
Method: RNA Bind-n-Seq
Form: RNA
Matrix: in vitro
Tested at: 200 nM
Notes: whole 134-nt RNA, ends assumed
Added: 150 mM LiCl
Baseline: input library
Reading: higher = stronger binding
All molecules: 7-deaza-guanosine replaces G
The log2 enrichment of `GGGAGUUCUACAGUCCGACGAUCAGUCCUGUGCUACACAUCGUAUGUACCGAAUCGGUUUUGGGGUUUUGGGGUUUUGGGAAAGUAUUAUGUUACGCCGUUCGGAUCUGCACUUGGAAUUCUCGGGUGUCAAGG` is reported as -0.509.
The log2 enrichment of `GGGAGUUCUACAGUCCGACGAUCAGUCCUGUGCUACACAUCGUAUGUACCGAAUCGGGGAAAAAGGAAAAAGGAAAAAGGGAAAGUAUUAUGUUACGCCGUUCGGAUCUGCACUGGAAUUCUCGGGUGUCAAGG` is reported as -0.589.
The log2 enrichment of `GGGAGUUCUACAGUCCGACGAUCACCAUGCAGGUGGGCAUCAUUGGGAAGUGGGGCAAGGGGGGGAUAGGGAGGGGGGUAACACUUUGGGAACAGGUGGUCCCAGGUCGUUUCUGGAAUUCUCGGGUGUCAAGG` is reported as 0.198.
For `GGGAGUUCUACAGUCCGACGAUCACCAUUCAGGUGGGCAUCUUUGGGAAGUGGGGCAAGGGGGGGAUAGGGAGGGGGGUAACACUUUGGGAACAGGUGGUCCCAGGUCGUUUCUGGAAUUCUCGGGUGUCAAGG`, the log2 enrichment was 0.413.
`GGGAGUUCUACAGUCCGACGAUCCACAGACAACACGCACCCACACAGACACAGAGGGAAGGGGUUGUGAUGGGGACAGGGUGCACAGCAGGGCGGGGUAGGACCCCAGCCCCUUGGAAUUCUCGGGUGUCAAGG` gave a log2 enrichment of -1.46.
`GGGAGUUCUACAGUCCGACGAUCAAGUCCUGUGCUACACAUCGUAUGUACCGAAUCGGGGAAAGGGAAAGGGAAAGGGGAAAGUAUUAUGUUACGCCGUUCGGAUCUGCACUUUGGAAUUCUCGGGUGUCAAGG` has a log2 enrichment of 0.489.
With `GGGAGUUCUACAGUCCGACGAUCUAACUUUAGAGGAGGAUCUGAUGGAUAUGGCAGUGGACGUGGAUUUGGGGAUGGCUAUCAUGGGUAUGGAGGAGGACCUGGAGGUGGCAAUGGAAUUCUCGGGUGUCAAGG` the log2 enrichment was -0.194.
`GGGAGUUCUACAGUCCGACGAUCAUUUGUACACAGACAGGGAAACUGGCAAGCUGAAGGGAGAGGCAACGGUCUCUUUUGAUGACCCACCUUCAGCUAAAGCAGCUAUUGACUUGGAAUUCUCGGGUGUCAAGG` has a log2 enrichment of -0.209.
For `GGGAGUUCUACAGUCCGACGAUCGUCCUGUGCUACACAUCGUAUGUACCGAAUCGGGUUUUUGGGAAAGGGUUUUUUUGGGAAAGUAUUAUGUUACGCCGUUCGGAUCUGCACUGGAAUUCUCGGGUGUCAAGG`, the log2 enrichment was -1.06.
With `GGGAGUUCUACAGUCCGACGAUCACCAUAAAGGUGGGCAUCUUUGGGAAGUGGGGCAAGGGGGGGAUAGGGAGGGGGGUAACACUUUGGGAACAGGUGGUCCCAGGUCGUUUCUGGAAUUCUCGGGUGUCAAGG` the log2 enrichment was 0.415.
`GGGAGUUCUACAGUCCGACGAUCUGUGCUACACAUCGUAUGUACCGAAUCGGGGUUUUUUUGGGGUUUUUGGGGAAAAAAAGGGGAAAGUAUUAUGUUACGCCGUUCGGAUCUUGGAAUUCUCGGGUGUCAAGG` has a log2 enrichment of 0.5.

Set 4
Target: Histone acetyltransferase KAT6A, winged helix 2, GST fusion (KAT6A, Homo sapiens, UniProt Q92794, residues 85-181)
Method: protein binding microarray
Form: double-stranded DNA, one strand shown
Matrix: in vitro
Tested at: not given
Notes: 8-mer, flanks averaged, mean of 2 arrays, mostly near background
Baseline: not given
Reading: higher = stronger binding
Construct (chain): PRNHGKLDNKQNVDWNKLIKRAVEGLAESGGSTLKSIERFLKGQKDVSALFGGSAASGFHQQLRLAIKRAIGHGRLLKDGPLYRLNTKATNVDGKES
For `ACGATGCC`, the E-score was -0.0222.
`ACTAGCGG` gave an E-score of 0.00105.
`ACTACGTC` has an E-score of -0.108.
`ATAATGTG` has an E-score of -0.0646.
For `ACGCTAGA`, the E-score was -0.0979.
`ACGAAGGG` has an E-score of 0.15.
`CCTGTTTC` has an E-score of 0.0576.
For `AATCATGG`, the E-score was -0.0215.
`CGTACATA` has an E-score of -0.121.
With `AATTTCCG` the E-score was 0.0171.
For `ACGTTAAG`, the E-score was -0.224.
The E-score of `ACCATAGA` is reported as -0.0343.
For `TACGCATA`, the E-score was -0.0899.
With `GTACTTCA` the E-score was 0.0828.
`CCGTTAAA` has an E-score of -0.148.
`CGGGATTA` has an E-score of -0.0124.
The E-score of `ACGAACTA` is reported as 0.0355.

Set 5
Target: CCND3, cyclin fold, Cln2 fusion (human)
Method: yeast growth competition, sequencing
Matrix: yeast
Notes: weak parent motif
Baseline: not given
Reading: higher = stronger binding
Parent: CCP110 docking peptide (human); EKVKRRLDLDIDG; partner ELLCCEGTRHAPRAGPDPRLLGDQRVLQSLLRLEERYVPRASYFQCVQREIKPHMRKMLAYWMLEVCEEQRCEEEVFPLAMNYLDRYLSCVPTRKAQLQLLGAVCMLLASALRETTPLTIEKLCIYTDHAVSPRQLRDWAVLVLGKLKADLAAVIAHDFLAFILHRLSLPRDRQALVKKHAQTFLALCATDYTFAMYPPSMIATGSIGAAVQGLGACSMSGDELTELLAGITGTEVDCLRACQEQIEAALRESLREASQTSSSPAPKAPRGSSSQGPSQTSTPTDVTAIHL
Under “normalised enrichment score”, `EKVKRRLDFDIDG [L9F]` is recorded as 0.194.
Under “normalised enrichment score”, `EKVKARADLDIDG [R5A L7A]` is recorded as 0.223.
Under “normalised enrichment score”, `EKVKRRLDLDIDA [G13A]` is recorded as 0.11.
`EKVKRRLDADIDG [L9A]` — result for “normalised enrichment score”: 0.163.
`EKAKRRLDLDIDG [V3A]` — result for “normalised enrichment score”: 0.122.
`EAVKRRLDLDIDG [K2A]`: “normalised enrichment score” 0.0907.
`EKVKRRLDLAIDG [D10A]`: “normalised enrichment score” 0.183.
`EKVKRRADLDIDG [L7A]`: “normalised enrichment score” 0.000428.
`EKVKKRLDLDIDG [R5K]` — result for “normalised enrichment score”: 0.0422.
For `EKVKRALDLDIDG [R6A]`, “normalised enrichment score” read 0.113.

Single results of other studies
With `GGGAGUUCUACAGUCCGACGAUCGAAACUCCCCAUUGUCACUGAGAACCACCAAAUCUGACUUUUACAUUUGGUCUCAGAAUUCCGGUUCCUGCCCUGUUGGUUUUUUUUUUUUUUUUUUAAACAGUUUUCAAAAGUUCUUAACAACAGAGGAUUGAGCAUCA` the bound/input enrichment was 1.62 ratio (RING finger protein unkempt homolog, zinc fingers 1-6, SBP tag (UNK, Homo sapiens, UniProt Q9C0B0, residues 30-357); RNA Bind-n-Seq; RNA, in vitro; 100 nM, RNA with constant flanks, ends assumed; baseline: input RNA pool, higher = stronger binding).

Repeated from above (set 5):
`EKVKRRLDADIDG [L9A]` — result for “normalised enrichment score”: 0.163.
Under “normalised enrichment score”, `EKVKRRLDFDIDG [L9F]` is recorded as 0.194.
For `EKVKRALDLDIDG [R6A]`, “normalised enrichment score” read 0.113.
`EKVKRRLDLAIDG [D10A]`: “normalised enrichment score” 0.183.
Under “normalised enrichment score”, `EKVKARADLDIDG [R5A L7A]` is recorded as 0.223.
`EAVKRRLDLDIDG [K2A]`: “normalised enrichment score” 0.0907.
`EKAKRRLDLDIDG [V3A]` — result for “normalised enrichment score”: 0.122.
`EKVKKRLDLDIDG [R5K]` — result for “normalised enrichment score”: 0.0422.
Under “normalised enrichment score”, `EKVKRRLDLDIDA [G13A]` is recorded as 0.11.
`EKVKRRADLDIDG [L7A]`: “normalised enrichment score” 0.000428.
